# Measured values gathered from unrelated publications.
# The chains behind the UniProt entries cited, without tags or fusion partners.
# UniProt P11712, whole entry: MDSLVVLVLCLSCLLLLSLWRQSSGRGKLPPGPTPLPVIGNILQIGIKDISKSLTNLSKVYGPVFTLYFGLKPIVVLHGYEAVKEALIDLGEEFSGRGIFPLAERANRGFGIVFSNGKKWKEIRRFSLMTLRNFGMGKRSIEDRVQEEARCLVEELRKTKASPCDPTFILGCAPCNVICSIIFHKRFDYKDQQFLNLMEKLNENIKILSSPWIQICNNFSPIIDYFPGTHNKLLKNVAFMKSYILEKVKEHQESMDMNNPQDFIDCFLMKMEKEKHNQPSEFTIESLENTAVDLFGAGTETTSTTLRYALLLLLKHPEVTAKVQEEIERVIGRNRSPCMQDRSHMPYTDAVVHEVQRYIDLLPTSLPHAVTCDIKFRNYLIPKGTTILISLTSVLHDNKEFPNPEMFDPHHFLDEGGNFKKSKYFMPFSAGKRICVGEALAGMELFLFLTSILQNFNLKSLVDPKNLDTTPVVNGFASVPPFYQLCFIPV
# UniProt P10635, whole entry: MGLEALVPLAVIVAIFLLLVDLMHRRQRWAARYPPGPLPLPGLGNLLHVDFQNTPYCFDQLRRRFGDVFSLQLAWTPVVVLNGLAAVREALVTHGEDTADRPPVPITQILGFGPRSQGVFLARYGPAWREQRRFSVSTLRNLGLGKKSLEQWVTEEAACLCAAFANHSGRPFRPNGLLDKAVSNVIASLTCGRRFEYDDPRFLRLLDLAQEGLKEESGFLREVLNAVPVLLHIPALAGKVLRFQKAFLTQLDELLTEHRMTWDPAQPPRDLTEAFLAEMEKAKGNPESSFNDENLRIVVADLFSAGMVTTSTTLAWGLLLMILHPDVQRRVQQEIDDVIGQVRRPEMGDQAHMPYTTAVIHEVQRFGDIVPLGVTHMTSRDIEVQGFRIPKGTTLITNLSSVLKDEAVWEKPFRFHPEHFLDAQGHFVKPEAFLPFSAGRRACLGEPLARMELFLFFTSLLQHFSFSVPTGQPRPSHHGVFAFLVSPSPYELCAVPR
# UniProt P08684, whole entry: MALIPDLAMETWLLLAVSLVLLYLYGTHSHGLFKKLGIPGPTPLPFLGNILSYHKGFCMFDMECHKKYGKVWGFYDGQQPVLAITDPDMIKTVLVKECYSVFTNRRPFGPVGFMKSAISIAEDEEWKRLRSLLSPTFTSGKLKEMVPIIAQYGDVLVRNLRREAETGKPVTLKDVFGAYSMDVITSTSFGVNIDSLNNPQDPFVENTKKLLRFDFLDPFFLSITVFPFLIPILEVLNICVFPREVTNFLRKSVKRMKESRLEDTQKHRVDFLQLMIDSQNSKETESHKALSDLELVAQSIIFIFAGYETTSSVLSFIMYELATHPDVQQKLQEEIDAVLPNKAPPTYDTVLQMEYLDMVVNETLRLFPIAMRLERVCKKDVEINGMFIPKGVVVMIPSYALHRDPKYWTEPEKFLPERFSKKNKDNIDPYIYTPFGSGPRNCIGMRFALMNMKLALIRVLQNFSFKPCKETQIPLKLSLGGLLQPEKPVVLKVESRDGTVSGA
# Compare with care: the assays were run in different laboratories. Numbers after ± are the reported error.
# CYP2C9: Cytochrome P450 2C9 (CYP2C9, Homo sapiens, UniProt P11712)
SMILES,target or system,test,system,conditions,quantity,result
COc1cc([C@@H]2c3cc4c(cc3[C@](O)(C3(O)CCOCC3)[C@H]3COC(=O)[C@H]23)OCO4)cc(OC)c1OC,mouse splenocytes uninfected,Alamar Blue,,48 h,CC50,4.3 ± 0.6 µM
Cc1cc(SCc2sc(-c3ccc(Cl)cc3)nc2C)ccc1OCC(=O)O,HEK293T,,,18 h,CC50,> 100 µM
Cc1ccccc1OCCCSCc1nc2ccccc2[nH]1,SW480 tumour organoids,"cytotoxicity, 3D culture",,72 h,IC50,34.1 µM
Nc1ncc(-c2ccc3ncnc(N4CCc5cc(F)c(Cl)cc54)c3c2)cn1,,,"CD1 mouse, brain","oral, 100 mg/kg",Tmax,8 h
Cc1cc(NC(=O)c2cccc(NC(=O)C3=CC(C)(C)CCC3=O)c2)ccc1Nc1nccc(-c2cccnc2)n1,,,rat plasma,"1 µM, 15 min",compound remaining,104%
COC(=O)[C@@H]1C(c2nc3cc(C)ccc3o2)=Cc2cc3c(cc2[C@H]1c1cc(OC)c(OC)c(OC)c1)OCO3,mouse splenocytes uninfected,Alamar Blue,,48 h,CC50,86.2 ± 0.1 µM
CCOc1ccccc1Nc1nnc(SCC(=O)Nc2cc(F)ccc2F)s1,WI-38,cytotoxicity,,,IC50,> 100 µM
Cc1cc(SCc2sc(-c3cccc4ccccc34)nc2C)ccc1OCC(=O)O,HEK293T,,,18 h,CC50,> 50 µM
Cc1c(-c2ccccc2)nn2c(=O)cc(-c3cccc(-c4nnn[nH]4)c3)[nH]c12,,,mouse,intravenous,half-life,< 1 h
Cc1n[nH]c(C)c1CCOC(=O)c1cccc2c1oc(=O)n2C,"Cytochrome P450 2D6 (CYP2D6, Homo sapiens, UniProt P10635)",inhibitor,,10 µM,inhibition,5.2%
COc1cc([C@@H]2c3cc4c(cc3[C@@H](OC(C)C)[C@H]3COC(=O)[C@H]23)OCO4)cc(OC)c1OC,mouse splenocytes uninfected,Alamar Blue,,48 h,CC50,38 ± 2.5 µM
Cc1ccc(NC(=O)C2CC3CCC2C3)c(C)c1 (stereo not shown),"Cytochrome P450 3A4 (CYP3A4, Homo sapiens, UniProt P08684)","enzyme activity, inhibitor",,,IC50,> 30 µM
COC(=O)[C@@H]1C(C=Nc2ccccc2O)=Cc2cc3c(cc2[C@H]1c1cc(OC)c(OC)c(OC)c1)OCO3,mouse splenocytes uninfected,Alamar Blue,,48 h,CC50,> 100 µM
Cc1cc(SCc2sc(-c3cccc(Cl)c3)nc2C)ccc1OCC(=O)O,HEK293T,,,18 h,CC50,28.8 ± 5 µM
CCCSc1nc(N[C@@H]2C[C@H]2c2ccc(F)c(F)c2)c2nnn([C@@H]3C[C@H](O)[C@@H](O)[C@H]3O)c2n1,,,"ovariectomized female Wistar rat, plasma","oral, 180 mg/kg/day ticagrelor, 5 h, day 1",plasma concentration,8.1 ± 2.7 µM
COc1cc([C@@H]2c3cc4c(cc3C=C(C=O)[C@H]2C(=O)OCCCn2cnc3c(Cl)ncnc32)OCO4)cc(OC)c1OC,mouse splenocytes uninfected,Alamar Blue,,48 h,CC50,42 ± 1.9 µM
COc1ccc(S(=O)(=O)N2CCCN(CC(=O)Nc3ccc(OC)cc3OC)CC2)cc1,CYP2C9,"enzyme activity, inhibitor",,,IC50,1.8 µM
Cc1cc(SCc2sc(-c3ccccc3)nc2C)ccc1OCC(=O)O,HEK293T,,,18 h,CC50,> 100 µM
CC(C)n1nnc(-c2cc(O)cc(Nc3ncnn4ccc(CN5CCC(N)CC5)c34)c2)n1,,,mouse,"subcutaneous, 30 mg/kg, 90 min",brain to plasma ratio,0.01
COC(=O)[C@@H]1C(C=Nc2ccccc2)=Cc2cc3c(cc2[C@H]1c1cc(OC)c(OC)c(OC)c1)OCO3,mouse splenocytes uninfected,Alamar Blue,,48 h,CC50,> 100 µM
Cc1cc(SCc2sc(-c3ccc4c(c3)OCCO4)nc2C)ccc1OCC(=O)O,HEK293T,,,18 h,CC50,> 80 µM
COC(=O)[C@@H]1C(c2nc3cncnc3[nH]2)=Cc2cc3c(cc2[C@H]1c1cc(OC)c(OC)c(OC)c1)OCO3,HepG2,Alamar Blue,,48 h,CC50,92.5 ± 6.8 µM
Cc1cc(SCc2sc(-c3ccc(C#N)cc3)nc2C)ccc1OCC(=O)O,HEK293T,,,18 h,CC50,> 80 µM
CCOc1ccc(S(=O)(=O)NC(=O)Cc2ccc(I)cc2)cc1Br,MDCKII-MDR1,,,time not given,recovery A-B,96%
Cc1cc(SCc2sc(-c3cc(F)cc(Cl)c3)nc2C)ccc1OCC(=O)O,HEK293T,,,18 h,CC50,> 50 µM
COc1ccc(CC(=O)OCc2ccc(-n3cccn3)cc2)cc1F,CYP2C9,inhibitor,,10 µM,inhibition,11.2%
COC(=O)[C@@H]1C(C=Nc2nccs2)=Cc2cc3c(cc2[C@H]1c1cc(OC)c(OC)c(OC)c1)OCO3,mouse splenocytes uninfected,Alamar Blue,,48 h,CC50,58.1 ± 2.7 µM
Cc1nc(-c2ccc(C(F)(F)F)c(F)c2)sc1COc1ccc(CCC(=O)O)cc1,HEK293T,,,18 h,CC50,> 100 µM

# Excerpt of the above:
SMILES,target or system,test,system,conditions,quantity,result
COc1ccc(CC(=O)OCc2ccc(-n3cccn3)cc2)cc1F,CYP2C9,inhibitor,,10 µM,inhibition,11.2%
COc1cc([C@@H]2c3cc4c(cc3[C@@H](OC(C)C)[C@H]3COC(=O)[C@H]23)OCO4)cc(OC)c1OC,mouse splenocytes uninfected,Alamar Blue,,48 h,CC50,38 ± 2.5 µM
Cc1nc(-c2ccc(C(F)(F)F)c(F)c2)sc1COc1ccc(CCC(=O)O)cc1,HEK293T,,,18 h,CC50,> 100 µM
Cc1cc(SCc2sc(-c3ccccc3)nc2C)ccc1OCC(=O)O,HEK293T,,,18 h,CC50,> 100 µM
COC(=O)[C@@H]1C(c2nc3cncnc3[nH]2)=Cc2cc3c(cc2[C@H]1c1cc(OC)c(OC)c(OC)c1)OCO3,HepG2,Alamar Blue,,48 h,CC50,92.5 ± 6.8 µM
